# Published values collected from several papers.
# Numbered parts are unrelated; each lists some results of a single study.

# Set 1 — technique: protein binding microarray; molecule type: double-stranded DNA, one strand shown; medium: in vitro; concentration: not given; reference: not given; reading: higher = stronger binding
# Target: Histone acetyltransferase KAT6A, winged helix 1, GST fusion (KAT6A, Homo sapiens, UniProt Q92794, residues 1-85)
# Notes: 8-mer, flanks averaged, mean of 2 arrays, mostly near background
# Construct (chain): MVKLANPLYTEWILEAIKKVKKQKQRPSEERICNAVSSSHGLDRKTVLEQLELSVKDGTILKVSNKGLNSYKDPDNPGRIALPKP
Oligonucleotide,E-score
CCTAACAG,-0.045
CCTAGATC,-0.0651
AGCCAGCA,-0.125
CCGGAGAA,0.16
AAAACGCG,0.254
TGAGGTAA,-0.178
AAGAAAAT,-0.165
CCATGGCC,-0.00793
CAAATACC,-0.04
CCCGCTAC,0.255
GCCGATAA,0.189
GGGAGAAA,-0.163
GCCTTACA,-0.125
AGCGCGGG,0.408
ATTACTGC,0.0319
ACCCAGGG,-0.278
ACGACCGG,0.124
CACGCTCC,0.034
ATGTAATC,-0.117
GGCTGGAC,0.0486
CAACGCCA,-0.101
AAATGGAT,-0.237
GGGAGCGA,-0.126
GGCACGAA,-0.0989
ACTGCCTA,-0.229

# Set 2 — technique: protein-binding microarray; molecule type: double-stranded DNA, one strand shown; medium: in vitro; concentration: 2540 nM top; notes: 60-bp whole probe; together with: salmon DNA 0.4 mg/ml; reference: random background probes; reading: higher = stronger binding; all sequences stand within: GCCTAGCAC … GTCTTGATTCGCTTGACGCTGCTG
# Target: Interferon regulatory factor 3, full length, phosphomimetic (IRF3, Homo sapiens, UniProt Q14653, residues 1-427, S386D/S396D/S398D/S402D/T404D/S405D)
# Construct (chain): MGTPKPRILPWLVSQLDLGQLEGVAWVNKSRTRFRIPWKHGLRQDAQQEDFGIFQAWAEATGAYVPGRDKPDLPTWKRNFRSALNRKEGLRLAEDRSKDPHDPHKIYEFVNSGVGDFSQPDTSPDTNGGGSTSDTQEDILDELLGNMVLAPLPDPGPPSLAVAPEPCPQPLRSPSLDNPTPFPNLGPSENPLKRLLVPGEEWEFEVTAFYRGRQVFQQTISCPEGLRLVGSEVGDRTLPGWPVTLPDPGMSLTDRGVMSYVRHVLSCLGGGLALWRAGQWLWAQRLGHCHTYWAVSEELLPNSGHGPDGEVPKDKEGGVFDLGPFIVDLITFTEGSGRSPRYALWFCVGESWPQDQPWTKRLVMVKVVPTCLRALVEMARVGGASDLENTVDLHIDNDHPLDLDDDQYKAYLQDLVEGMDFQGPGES
Oligonucleotide,fitted relative affinity [z-score]
TTAGGCATCGACACTGGGTTAGTGCTA,-0.913
CTCATTTTCATTTTGTGTCTGTGCTAG,3.05
TTAGGTTTCGGTGTCGGTTAGTGCTAG,6.2
GACGGACTGGGGATTCGGGACGTGCTA,-0.717
TTAGAACTCGGGTTTCGATTAGTGCTA,1.53
TTAGGTTTCGGGTATCGCTTAGTGCTA,4.15
TCACCAATGGTCTTTCCAACTGTGCTA,0.0552
CCTTGCATGTTTTTGACAAAGTGCTAG,0.44
TCAGTTCTGAGTCTTCCACTGTGCTAG,0.739
TTTCAGCTGTTTTTCTCACCGTGCTAG,1.63
CCACATTTGATAAATCTTTGTGTGCTA,0.476
TAAGGACTGCTTTTCCTTTAGTGCTAG,0.988
TTAGGTTTCGACACTGGATTAGTGCTA,2.62
GACAGTCTCCTACTGCTGACGTGCTAG,1.55
TTAGGTTTCCTTATCCGTTAGTGCTAG,7.83
TGAGGTCTCGGTATCGGTTAGTGCTAG,2.16
GACAATATCAGTATCGAGACGTGCTAG,1.26
TTAGGTTTCTTACTGCTTTAGTGCTAG,1.39
TCACCTTAGGTTTTCTGACTGTGCTAG,0.575
TTAGGTTTCGACTATCTGTTAGTGCTA,2.28
TTAGGTTTCGACTTTCGGATAGTGCTA,3.81
TTAAGTTTCGACTTTCGGTTAGTGCTA,4.46
GACGAACTGAGTATCGAGATGTGCTAG,0.0811
TCACCTTTCTCTTGGAGACTGTGCTAG,5.03
TTATGTATCCTACTGCTTTAGTGCTAG,2.48

# Set 3 — technique: RNA Bind-n-Seq; molecule type: RNA; medium: in vitro; concentration: 365 nM; reference: no-protein control; reading: higher = stronger binding
# Target: RNA binding protein fox-1 homolog 2, RRM domain, GST-SBP tag (RBFOX2, Homo sapiens, UniProt O43251-10, residues 100-194)
# Notes: natural RNA segment, single round, ends assumed
# All sequences stand within: GGGAGUUCUACAGUCCGACGAUC … UGGAAUUCUCGGGUGCCAA
# Construct (chain): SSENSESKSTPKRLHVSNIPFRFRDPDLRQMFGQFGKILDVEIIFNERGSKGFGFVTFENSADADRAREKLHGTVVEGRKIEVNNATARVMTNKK
Oligonucleotide,RBNS enrichment (R)
AUUGAAACCAGUGUAACAGCACAAAGAGCUCUAAUGUGUAACACUUCCUCUGAAAUGGAUAUAAAGAUGUAAAUUUUAUAACAGCACUGUUUAUUCUGAUGCAUUCUGAU,1.02
UUUGAAGAAAAUGGAGACAGCUAGAACAAGCCCCCAGACUGCAAUCACUGGCUCCAGAAUUGUCUUUGCCCUUCUCACCUGUUCCUGGAAACUGGGGCAGCCAGUGCUUA,0.336
AAACUUAAAGUCUAUUCUACUUUGCAAGAGGAGAAAUGUGUUUUAUGAACGAUAGAUCACAUCAGAACUCCUGUGGGGAGGAAACCUUAUAAAUUAAACACAUGGCCCCC,0.286
AAAUUCAGCAGACACCUCUUCAGCUUGAGUUCUUCACCAUCUUUUGCAACUGAAAUAUGAUGGAUAUGCUUAAGUACAACUGAUGGCAUGAAAAAAAUCAAAUUUUUGAU,0.962
CAAGCCUUUUCUGGAUCCAGCCAUCAAGGACAUGUUUGUGGUGUGAUGCACACUUUUGCAAGCGUGUAAGAUGUUACCUGGUUUGUCUCUUUUGGAAAACAAAAAUCAGA,0.389
CACACGGAAAGAGAUAAGAAAAGCAGAGAGAGUGGGGUCACCCCACCAACACAGGUUGCAGAGUGCUCAGUCCUGCUCUGCCUAGCUGGCCCCACCCCAGCUCUCUUUCU,0.547
GGGUGAUGCCAGGUUGUCCCGUCACUGGGGUCCCAUCUGUAAAUUCUUUGCGCCCUUCCCGGCUGCUGCCUGGGGCCCUUUCCUGCUCUCCCGUCCGCUGUGGGUGGUCC,0.442
AUAAGAAAUCUCACACUGAGAUAGAAUUGUGAUUUCAUAAUAACACUUGAAAAGUGCUGGAGUAACAAAAUAUCUCAGUUGGACCAUCCUUAACUUGAUUGAACUGUCUA,0.273
UACAAGACUUCAUAAUGGUUUUGUGUGCUCUCGAGAGAGUACCUGCAGACUAGUUUUGGAUACAUUCACAUUUUGUACGUUUUCAUAUAAGCUGACAUAGUGUGAUUUGC,0.249
UGAAAUGUGUGUGAUGUGACAUUUGUCAUUUUCAUUAGCAAAAAAAGUUGUAUGAUCUGUGCCUUUUUUAUAUCUUGGCAGGUAGGAAUAUUAUAUUUGGAUGCAGAGUU,0.721
AAGAUGUCAAAUACAAUGCAGCAUUUUCAUCUUGUUCUUUCAAAGUUAAUAGUCUAUUAUUUUAUGUCUAUUGAUUUUCAUUGUUAAUGUGAAAUGGUUAUUUAUACUUA,0.646
CUCUCCUUGUUUGCUAUGGGGGAGAUUGCUUCCCUCCCCAGAUCUUUGCUAUGUAGCUUAGAGUGACCUUAAACUUAUGAUCCCCCUGCCUCCACCUCCUCAAUGCCGUA,1.47

# Set 4 — technique: protein-binding microarray; molecule type: double-stranded DNA, one strand shown; medium: in vitro; concentration: not given; reading: higher = stronger binding
# Target: Max dimerization protein 1, bHLH-zipper, MAX partner unstated (MXD1, Homo sapiens, UniProt Q05195, residues 56-136)
# Notes: k-mer, scored over probes, only values ≥0.25
# Residues (chain): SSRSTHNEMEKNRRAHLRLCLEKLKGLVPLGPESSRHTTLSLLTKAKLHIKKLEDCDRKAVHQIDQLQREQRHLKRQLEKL
Oligonucleotide,E-score
ACCGCGTG,0.454
GCCCGCCC,0.314
GCGTGCAC,0.388
CATATGGG,0.345
GGCATGCC,0.396
CACGCGAA,0.291
GGGGGCAA,0.274
CCCATGCA,0.327
AAACATGC,0.396
GCATGACA,0.324
CGCGTGTC,0.437
CGTGAAAC,0.258
ATGCGGGC,0.31
GGGCGTGA,0.295
CGACCGCC,0.266
AACATGCC,0.291
GCCCACGC,0.375
ACGTGCTA,0.398
CTCCCCCC,0.286
GCCCCCAC,0.257
ACGTGTGC,0.422
CTCGTGTA,0.427
CGCCGCAC,0.26
TGTGTCAA,0.275
ACACGAGC,0.267

# Set 5 — technique: RNA Bind-n-Seq; molecule type: RNA; medium: in vitro; concentration: 20 nM; notes: 6-mer, flanks averaged, single round; together with: 150 mM LiCl; reference: input library; reading: higher = stronger binding
# Target: TAR DNA-binding protein 43, full length, His tag (TARDBP, Homo sapiens, UniProt Q13148, residues 1-414)
Oligonucleotide,6-mer enrichment (R)
ACACCC,1.08
UUGUCA,0.944
GCGAGU,1.11
CGCCCC,1.22
CAACUA,0.824
AAGCCG,0.866
AUCUGU,0.922
UACUCU,0.875
GCGCAG,1.02
UUGGCA,1
UAGCUC,0.863
GGGGAC,1.2
UAUGCU,1.01
GGAAGU,1.08
UCAUUA,0.934
UUCGUU,0.973
UCGUAC,0.844
UGGAUG,1.26
CGGAAU,0.898
CGAGAU,0.904
AUGUAA,0.953
UACAAC,0.832
ACGUUA,0.895

# Repeated from above (set 1):
Oligonucleotide,E-score
CCCGCTAC,0.255
CCGGAGAA,0.16
ACCCAGGG,-0.278
GGCACGAA,-0.0989
GGCTGGAC,0.0486
GGGAGCGA,-0.126
GGGAGAAA,-0.163
AGCCAGCA,-0.125
CCTAACAG,-0.045
CAAATACC,-0.04
AGCGCGGG,0.408
AAGAAAAT,-0.165
CCTAGATC,-0.0651
GCCGATAA,0.189
ACGACCGG,0.124
